Measured values pooled from the literature.
Every numbered part comes from another study and shows a few of its results, in no order.

Series 1
Target: Transcription factor SOX-2, HMG box (Sox2, Mus musculus, UniProt P48432, residues 41-119)
UniProt P48432, sequence (41-119, looked up): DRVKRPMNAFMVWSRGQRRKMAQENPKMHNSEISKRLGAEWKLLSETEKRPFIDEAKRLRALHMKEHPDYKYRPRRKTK
Method: Spec-seq
Form: double-stranded DNA, one strand shown
Medium: in vitro
Concentration: not given
Notes: whole probe, mean of replicates
Baseline: not given
Direction: lower = stronger binding
| Sequence | relative binding energy |
| --- | --- |
| GAGTCGTCTCGTCAGCACAGCGGTTCCGTAGAGCACTCAGGTC | 0.85 ln ratio |
| GAGTCGTCTCGTCAGCACCATTGTACCGTAGAGCACTCAGGTC | -2.25 ln ratio |
| GAGTCGTCTCGTCAGCACCATTGCCCCGTAGAGCACTCAGGTC | -0.05 ln ratio |

Series 2
Target: Sal-like protein 4, full length isoform A (SALL4, Homo sapiens, UniProt Q9UJQ4, residues 1-1053)
UniProt Q9UJQ4, sequence (whole entry, looked up): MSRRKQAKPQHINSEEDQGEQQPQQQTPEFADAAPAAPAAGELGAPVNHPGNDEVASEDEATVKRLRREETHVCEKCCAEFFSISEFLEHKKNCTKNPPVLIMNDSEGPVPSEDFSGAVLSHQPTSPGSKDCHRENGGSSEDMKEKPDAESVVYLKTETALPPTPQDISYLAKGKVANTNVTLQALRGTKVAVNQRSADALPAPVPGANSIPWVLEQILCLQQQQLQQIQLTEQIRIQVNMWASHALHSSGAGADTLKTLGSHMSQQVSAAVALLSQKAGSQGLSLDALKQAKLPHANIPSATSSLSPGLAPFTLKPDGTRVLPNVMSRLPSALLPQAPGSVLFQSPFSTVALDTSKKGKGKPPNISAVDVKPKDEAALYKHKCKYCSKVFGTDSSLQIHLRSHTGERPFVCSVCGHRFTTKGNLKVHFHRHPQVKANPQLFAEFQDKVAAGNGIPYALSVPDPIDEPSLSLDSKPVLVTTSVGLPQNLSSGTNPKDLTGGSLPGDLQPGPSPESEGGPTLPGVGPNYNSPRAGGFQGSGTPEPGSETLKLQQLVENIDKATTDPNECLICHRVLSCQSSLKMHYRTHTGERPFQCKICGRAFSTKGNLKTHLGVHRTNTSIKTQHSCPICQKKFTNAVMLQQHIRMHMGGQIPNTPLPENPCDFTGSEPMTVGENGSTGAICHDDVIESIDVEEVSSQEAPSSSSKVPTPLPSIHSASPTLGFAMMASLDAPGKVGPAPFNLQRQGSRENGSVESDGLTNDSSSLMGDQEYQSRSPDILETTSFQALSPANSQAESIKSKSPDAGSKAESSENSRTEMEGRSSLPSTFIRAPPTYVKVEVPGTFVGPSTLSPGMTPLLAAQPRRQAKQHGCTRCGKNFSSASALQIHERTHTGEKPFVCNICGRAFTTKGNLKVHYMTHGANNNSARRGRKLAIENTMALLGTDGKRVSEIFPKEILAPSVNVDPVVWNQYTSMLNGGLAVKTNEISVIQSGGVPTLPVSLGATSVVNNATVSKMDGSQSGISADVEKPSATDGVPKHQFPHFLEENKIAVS
Method: universal PBM
Form: double-stranded DNA, one strand shown
Medium: in vitro
Concentration: 600 nM
Notes: 8-mer, flanks averaged, mean of replicates
Direction: higher = stronger binding
| Sequence | E-score |
| --- | --- |
| ACCCCCTA | -0.205 |
| CAGGCTGC | -0.186 |
| GTGAAGGA | 0.0828 |

Series 3
Target: Histone acetyltransferase KAT6A, winged helix 1, GST fusion (KAT6A, Homo sapiens, UniProt Q92794, residues 1-85)
Method: protein binding microarray
Form: double-stranded DNA, one strand shown
Medium: in vitro
Concentration: not given
Notes: 8-mer, flanks averaged, mean of 2 arrays, mostly near background
Baseline: not given
Direction: higher = stronger binding
Residues (chain): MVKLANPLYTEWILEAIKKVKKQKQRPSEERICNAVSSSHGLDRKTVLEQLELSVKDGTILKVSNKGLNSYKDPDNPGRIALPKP
| Sequence | E-score |
| --- | --- |
| CAGTCGCC | 0.0323 |
| ACTCTGGG | -0.207 |
| AGATCAGA | 0.0135 |
| ACATGCGT | 0.00391 |
| AGCATCCA | -0.226 |

Single results of other studies
| Substance | target | assay | test system | conditions | how to read | quantity | result |
| --- | --- | --- | --- | --- | --- | --- | --- |
| PhoQ, residues 284 288 289 292 302 303 SIHLQL | PhoP, residues 12 14 15 18 19 LYFRQ (Escherichia coli, UniProt P23836) | Sort-seq, refers to: YFP reporter | E. coli | PhoQ-PhoP variant library, together with: 10 µM Mg2+ | baseline: high Mg2+ state, higher = stronger signaling | fold induction | 5.44 |

Excerpt of the above (series 1):
| Sequence | relative binding energy |
| --- | --- |
| GAGTCGTCTCGTCAGCACAGCGGTTCCGTAGAGCACTCAGGTC | 0.85 ln ratio |
| GAGTCGTCTCGTCAGCACCATTGCCCCGTAGAGCACTCAGGTC | -0.05 ln ratio |
